Assay results from different studies.
Protocols differ between the studies behind these lines. Numbers after ± are the reported error.

Sequences of proteins named here, by UniProt entry; tags and fusion partners are left off. A change or cut given only in a name is not applied to a line headed by its entry. Residues count along the entry.
UniProt P07949, whole entry, looked up, stated change not applied: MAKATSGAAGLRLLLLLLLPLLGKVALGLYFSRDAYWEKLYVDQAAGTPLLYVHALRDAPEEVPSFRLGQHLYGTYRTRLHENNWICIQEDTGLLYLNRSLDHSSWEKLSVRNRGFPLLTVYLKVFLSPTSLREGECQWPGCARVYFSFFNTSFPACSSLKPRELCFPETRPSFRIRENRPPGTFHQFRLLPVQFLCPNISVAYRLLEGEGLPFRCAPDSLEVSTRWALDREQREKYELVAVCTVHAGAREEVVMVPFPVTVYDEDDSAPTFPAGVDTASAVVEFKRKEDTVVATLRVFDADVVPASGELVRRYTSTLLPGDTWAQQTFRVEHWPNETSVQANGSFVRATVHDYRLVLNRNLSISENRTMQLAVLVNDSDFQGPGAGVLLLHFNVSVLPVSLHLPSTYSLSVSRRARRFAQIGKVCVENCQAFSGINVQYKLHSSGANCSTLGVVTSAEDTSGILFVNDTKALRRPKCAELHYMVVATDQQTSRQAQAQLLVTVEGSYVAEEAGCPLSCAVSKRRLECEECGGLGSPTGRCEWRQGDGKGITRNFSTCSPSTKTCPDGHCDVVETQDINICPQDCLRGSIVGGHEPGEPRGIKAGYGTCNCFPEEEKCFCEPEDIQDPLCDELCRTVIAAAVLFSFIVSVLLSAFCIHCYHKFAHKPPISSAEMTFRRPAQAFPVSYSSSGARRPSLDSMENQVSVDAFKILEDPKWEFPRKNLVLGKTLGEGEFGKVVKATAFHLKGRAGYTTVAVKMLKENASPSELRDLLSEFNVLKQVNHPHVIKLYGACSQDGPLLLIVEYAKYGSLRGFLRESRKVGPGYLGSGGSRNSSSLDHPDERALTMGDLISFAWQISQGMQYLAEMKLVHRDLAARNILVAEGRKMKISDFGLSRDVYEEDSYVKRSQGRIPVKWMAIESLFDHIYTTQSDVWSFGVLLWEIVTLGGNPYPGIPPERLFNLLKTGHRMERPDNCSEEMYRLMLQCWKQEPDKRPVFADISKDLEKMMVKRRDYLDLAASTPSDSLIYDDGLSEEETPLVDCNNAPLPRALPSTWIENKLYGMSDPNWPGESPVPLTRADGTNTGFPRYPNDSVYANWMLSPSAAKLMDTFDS
UniProt P33176, whole entry, looked up: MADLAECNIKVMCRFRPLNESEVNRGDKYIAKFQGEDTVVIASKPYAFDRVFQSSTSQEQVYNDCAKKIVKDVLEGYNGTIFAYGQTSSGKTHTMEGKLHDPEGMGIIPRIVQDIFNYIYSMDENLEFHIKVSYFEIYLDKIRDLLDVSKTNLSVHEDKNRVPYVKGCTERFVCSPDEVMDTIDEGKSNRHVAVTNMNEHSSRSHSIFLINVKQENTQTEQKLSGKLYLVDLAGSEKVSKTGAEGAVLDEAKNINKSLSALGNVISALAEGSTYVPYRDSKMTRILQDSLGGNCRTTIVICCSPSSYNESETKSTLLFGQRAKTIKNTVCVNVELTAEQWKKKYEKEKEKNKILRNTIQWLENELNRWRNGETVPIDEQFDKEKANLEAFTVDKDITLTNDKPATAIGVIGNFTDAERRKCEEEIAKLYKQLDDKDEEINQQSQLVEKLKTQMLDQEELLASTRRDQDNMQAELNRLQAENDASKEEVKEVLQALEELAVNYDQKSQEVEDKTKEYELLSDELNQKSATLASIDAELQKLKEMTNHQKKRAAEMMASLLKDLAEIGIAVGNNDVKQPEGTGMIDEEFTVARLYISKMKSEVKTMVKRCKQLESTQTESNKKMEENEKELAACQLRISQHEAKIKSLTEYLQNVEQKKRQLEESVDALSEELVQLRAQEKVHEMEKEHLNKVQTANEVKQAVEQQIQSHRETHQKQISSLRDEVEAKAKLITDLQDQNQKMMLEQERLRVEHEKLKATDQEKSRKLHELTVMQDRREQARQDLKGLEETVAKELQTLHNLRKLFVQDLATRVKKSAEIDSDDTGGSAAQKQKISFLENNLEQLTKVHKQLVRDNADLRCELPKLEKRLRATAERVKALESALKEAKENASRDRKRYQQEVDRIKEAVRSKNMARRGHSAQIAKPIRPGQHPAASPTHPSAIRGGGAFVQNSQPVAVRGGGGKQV
UniProt Q96RJ0, whole entry: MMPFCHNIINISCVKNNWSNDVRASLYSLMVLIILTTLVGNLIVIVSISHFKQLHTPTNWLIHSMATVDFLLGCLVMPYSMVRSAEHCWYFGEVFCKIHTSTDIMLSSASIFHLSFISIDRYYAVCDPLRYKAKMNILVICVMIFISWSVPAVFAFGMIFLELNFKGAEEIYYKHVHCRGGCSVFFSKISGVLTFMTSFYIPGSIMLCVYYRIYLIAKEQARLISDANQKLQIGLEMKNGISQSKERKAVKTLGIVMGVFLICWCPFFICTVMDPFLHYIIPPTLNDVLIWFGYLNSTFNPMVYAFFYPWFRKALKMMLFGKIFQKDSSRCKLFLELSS
UniProt P24280, whole entry: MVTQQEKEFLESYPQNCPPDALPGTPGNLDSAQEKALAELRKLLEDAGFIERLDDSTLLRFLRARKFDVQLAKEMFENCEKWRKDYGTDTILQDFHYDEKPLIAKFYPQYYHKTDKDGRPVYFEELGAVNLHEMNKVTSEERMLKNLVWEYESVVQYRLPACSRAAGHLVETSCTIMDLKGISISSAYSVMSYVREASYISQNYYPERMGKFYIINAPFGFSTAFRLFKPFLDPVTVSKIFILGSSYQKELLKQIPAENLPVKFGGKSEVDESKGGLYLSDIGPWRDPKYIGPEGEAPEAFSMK
UniProt P29466, whole entry, looked up: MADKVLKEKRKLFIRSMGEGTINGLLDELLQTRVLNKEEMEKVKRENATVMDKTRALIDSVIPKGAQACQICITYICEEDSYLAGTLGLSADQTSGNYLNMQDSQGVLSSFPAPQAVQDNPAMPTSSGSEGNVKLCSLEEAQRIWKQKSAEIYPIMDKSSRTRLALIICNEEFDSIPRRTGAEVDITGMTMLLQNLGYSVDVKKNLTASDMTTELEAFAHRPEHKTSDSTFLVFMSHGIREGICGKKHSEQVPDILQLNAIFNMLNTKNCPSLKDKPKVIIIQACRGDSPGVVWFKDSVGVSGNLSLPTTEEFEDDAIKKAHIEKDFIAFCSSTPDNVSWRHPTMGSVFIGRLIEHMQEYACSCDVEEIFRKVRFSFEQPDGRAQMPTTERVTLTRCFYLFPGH
UniProt P14902, whole entry: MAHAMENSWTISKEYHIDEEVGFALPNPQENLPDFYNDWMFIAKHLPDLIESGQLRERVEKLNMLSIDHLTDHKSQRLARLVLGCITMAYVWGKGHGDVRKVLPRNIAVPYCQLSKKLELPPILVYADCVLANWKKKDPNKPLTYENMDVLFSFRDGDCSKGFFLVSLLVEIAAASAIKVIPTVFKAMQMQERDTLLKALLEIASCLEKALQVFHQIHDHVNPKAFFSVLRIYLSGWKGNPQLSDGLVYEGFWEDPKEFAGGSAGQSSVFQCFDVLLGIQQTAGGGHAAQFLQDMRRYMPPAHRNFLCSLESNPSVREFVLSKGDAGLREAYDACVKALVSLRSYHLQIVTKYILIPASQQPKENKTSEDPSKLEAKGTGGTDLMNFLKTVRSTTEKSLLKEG
UniProt O00141, whole entry S422D, looked up: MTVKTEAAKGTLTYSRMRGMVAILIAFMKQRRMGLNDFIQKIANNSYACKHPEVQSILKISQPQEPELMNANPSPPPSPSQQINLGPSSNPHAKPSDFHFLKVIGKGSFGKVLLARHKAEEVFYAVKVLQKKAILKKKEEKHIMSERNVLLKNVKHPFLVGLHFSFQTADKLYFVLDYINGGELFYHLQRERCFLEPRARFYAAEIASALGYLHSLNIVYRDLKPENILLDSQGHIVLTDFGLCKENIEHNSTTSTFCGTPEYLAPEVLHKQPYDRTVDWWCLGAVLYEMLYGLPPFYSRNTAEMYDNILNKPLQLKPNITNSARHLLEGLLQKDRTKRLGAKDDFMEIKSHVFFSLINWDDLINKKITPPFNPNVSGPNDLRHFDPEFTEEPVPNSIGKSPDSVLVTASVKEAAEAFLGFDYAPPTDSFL
UniProt P05067, 672-713 limits assumed: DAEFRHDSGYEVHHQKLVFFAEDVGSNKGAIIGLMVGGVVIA
UniProt P53779, 1-422 isoform 2: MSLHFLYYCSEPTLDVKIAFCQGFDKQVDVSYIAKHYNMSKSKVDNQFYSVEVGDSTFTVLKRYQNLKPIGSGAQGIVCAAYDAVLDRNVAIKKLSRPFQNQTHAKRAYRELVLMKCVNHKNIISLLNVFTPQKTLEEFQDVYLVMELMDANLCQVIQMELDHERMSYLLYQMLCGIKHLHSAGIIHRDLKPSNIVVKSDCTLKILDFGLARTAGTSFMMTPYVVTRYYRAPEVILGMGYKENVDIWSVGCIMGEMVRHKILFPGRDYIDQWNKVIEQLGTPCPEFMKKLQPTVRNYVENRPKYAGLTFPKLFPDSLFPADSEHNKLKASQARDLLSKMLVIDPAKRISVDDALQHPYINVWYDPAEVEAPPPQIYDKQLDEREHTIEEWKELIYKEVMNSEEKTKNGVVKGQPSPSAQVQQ
UniProt P51532, whole entry, looked up: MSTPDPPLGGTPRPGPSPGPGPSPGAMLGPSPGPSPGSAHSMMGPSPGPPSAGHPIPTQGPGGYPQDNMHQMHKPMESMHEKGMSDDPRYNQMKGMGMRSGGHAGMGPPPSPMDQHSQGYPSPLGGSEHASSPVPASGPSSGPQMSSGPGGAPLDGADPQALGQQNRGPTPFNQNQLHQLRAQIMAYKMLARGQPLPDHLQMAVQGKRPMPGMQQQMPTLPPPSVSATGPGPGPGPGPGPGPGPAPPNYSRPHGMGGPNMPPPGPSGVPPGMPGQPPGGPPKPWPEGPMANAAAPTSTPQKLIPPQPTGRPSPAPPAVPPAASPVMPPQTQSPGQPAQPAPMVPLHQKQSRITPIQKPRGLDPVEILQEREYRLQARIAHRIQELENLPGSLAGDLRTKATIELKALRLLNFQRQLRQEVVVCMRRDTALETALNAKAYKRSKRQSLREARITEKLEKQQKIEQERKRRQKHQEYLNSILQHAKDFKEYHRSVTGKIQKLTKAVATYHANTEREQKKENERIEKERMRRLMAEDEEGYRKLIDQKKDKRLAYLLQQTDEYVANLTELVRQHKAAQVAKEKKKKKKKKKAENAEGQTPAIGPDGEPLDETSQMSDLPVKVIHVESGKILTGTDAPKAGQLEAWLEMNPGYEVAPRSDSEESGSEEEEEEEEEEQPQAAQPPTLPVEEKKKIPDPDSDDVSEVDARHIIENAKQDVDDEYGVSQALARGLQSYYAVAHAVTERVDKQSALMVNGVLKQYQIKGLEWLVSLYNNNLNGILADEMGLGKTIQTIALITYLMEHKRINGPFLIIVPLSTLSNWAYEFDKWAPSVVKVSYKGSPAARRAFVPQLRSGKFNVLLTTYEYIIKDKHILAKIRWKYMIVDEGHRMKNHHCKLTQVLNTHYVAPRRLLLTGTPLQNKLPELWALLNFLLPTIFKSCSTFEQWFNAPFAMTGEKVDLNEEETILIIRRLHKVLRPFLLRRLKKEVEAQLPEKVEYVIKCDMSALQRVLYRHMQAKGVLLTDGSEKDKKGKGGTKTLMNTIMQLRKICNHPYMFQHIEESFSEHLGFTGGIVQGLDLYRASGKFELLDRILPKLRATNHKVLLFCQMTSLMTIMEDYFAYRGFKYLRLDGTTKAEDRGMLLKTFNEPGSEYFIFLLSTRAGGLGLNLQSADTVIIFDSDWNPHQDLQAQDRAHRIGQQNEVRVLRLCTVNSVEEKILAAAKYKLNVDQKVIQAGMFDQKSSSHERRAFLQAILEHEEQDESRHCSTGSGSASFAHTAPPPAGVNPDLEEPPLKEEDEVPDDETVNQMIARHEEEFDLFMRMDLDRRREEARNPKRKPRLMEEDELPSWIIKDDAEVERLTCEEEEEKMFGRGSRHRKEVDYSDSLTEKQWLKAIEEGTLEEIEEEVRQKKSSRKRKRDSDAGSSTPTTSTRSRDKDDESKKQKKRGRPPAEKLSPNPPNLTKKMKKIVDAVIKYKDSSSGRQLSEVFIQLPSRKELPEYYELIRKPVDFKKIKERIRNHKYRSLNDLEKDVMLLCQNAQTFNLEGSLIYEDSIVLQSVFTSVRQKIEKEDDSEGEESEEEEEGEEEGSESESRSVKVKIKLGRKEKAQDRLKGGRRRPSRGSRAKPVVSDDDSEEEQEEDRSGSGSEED
UniProt P03372, 311-547 limits assumed: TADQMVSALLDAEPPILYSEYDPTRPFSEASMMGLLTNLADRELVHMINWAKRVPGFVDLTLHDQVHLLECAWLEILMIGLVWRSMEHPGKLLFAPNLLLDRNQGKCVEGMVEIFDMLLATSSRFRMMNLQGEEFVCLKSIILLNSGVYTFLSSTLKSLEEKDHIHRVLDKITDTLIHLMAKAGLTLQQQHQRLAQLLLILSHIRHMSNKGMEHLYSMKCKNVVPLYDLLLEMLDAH
UniProt Q92879, 1-187 limits assumed: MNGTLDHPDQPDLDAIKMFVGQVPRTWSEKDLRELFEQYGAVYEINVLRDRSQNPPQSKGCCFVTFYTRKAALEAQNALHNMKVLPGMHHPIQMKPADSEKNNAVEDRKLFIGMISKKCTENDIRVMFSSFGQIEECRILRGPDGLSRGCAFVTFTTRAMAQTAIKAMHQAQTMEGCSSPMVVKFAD

| Compound | target or system | assay | test system | conditions | how to read | endpoint | result |
| --- | --- | --- | --- | --- | --- | --- | --- |
| CCN1C(=O)c2ccccc2N(C)c2nc(Nc3ccc(N4CCN(C)CC4)cc3OC)ncc21 | Bromodomain-containing protein 4, BD1 (BRD4, Homo sapiens, UniProt O60885) | inhibitor | – | – | – | IC50 | 1.06 µM |
| O=C(O)c1cc(C(=O)N[C@@H](Cc2cnc[nH]2)C(=O)O)cc([C@H]2CCN[C@@H]2C(=O)O)c1 | AMPA receptor (rat) | binding, radioligand binding | rat cortical synaptosomes | added: [3H]AMPA | – | IC50 | 10 to 50 µM |
| CN1CCN(Cc2ccc(NC(=O)c3cncc(C#Cc4cncc5ncccc45)c3)cc2C(F)(F)F)CC1 | Kinesin-1 heavy chain/ Tyrosine-protein kinase receptor RET (RET/KIF5B, Homo sapiens, UniProt P07949+P33176, G810D) | cell viability, inhibitor, CellTiter-Glo | Ba/F3 KIF5B-RET G810D | – | – | IC50 | 0.00671 ± 0.0003 µM |
| COc1cc([C@@H]2c3cc4c(cc3[C@H](CC(C)C)[C@H]3COC(=O)[C@H]23)OCO4)cc(OC)c1OC | Leishmania | – | mouse splenocytes | – | reference: CC50 over amastigote EC50 | selectivity index | 1.1 |
| COc1ccc(CC(=O)OCc2ccc(-n3cccn3)cc2)cc1F | CD28, with CD80 (Homo sapiens, UniProt P10747) | B7-1 binding, inhibitor, competitive ELISA | – | – | – | IC50 | 22.4 ± 6.8 µM |
| COc1ccc(-c2cc(C(F)(F)F)c(C#N)c(SCC(=O)Nc3ccc(C)cc3)n2)cc1 | Trace amine-associated receptor 1 (TAAR1, Homo sapiens, UniProt Q96RJ0) | – | – | – | – | IC50 | > 10 µM |
| O=C(NCc1ccc(-c2cnco2)cc1)[C@@H]1C[C@@H](O)CN1C(=O)c1cccc(Br)c1 | von Hippel-Lindau disease tumor suppressor, with elongin B, C (VHL, Homo sapiens, UniProt P40337) | binding, fluorescence polarization | – | 1% DMSO, added: FAM-HIF1α peptide tracer | – | IC50 | 31.5 ± 1.9 µM |
| C=CCn1c(Cc2ccccc2)nnc1Sc1c2c(c(C#N)c3nc4ccccc4n13)CCCC2 | ERO1-like protein alpha (Homo sapiens, UniProt Q96HE7) | enzyme activity, inhibitor, fluorescence | – | – | – | IC50 | 29.7 µM |
| O=[N+]([O-])c1cc(CN2CCN(c3ccc(Cl)cc3)CC2)ccc1Cl | SEC14 (Saccharomyces cerevisiae, UniProt P24280) | phosphatidylinositol transfer, inhibitor | – | Sec14 287 nM, added: [3H]-phosphatidylinositol | – | IC50 | 31 ± 10.3 µM |
| COc1cc(Nc2ccnc3cc(Br)ccc23)cc(OC)c1OC | Serine/threonine-protein kinase N3 (PKN3, Homo sapiens, UniProt Q6P5Z2) | target engagement, NanoBRET | HEK293 | – | – | IC50 | 2.7 µM |
| Cc1ccccc1CN1CCN(c2cc(N3CCCC3)nc(N3CCCC3)n2)CC1 | Caspase-1 (CASP1, Homo sapiens, UniProt P29466) | enzyme activity, inhibitor | – | 30 min preincubation, added: Ac-WEHD-AMC 10 µM | – | IC50 | 0.018 µM |
| COC(=O)/C(=C/c1c[nH]c2ccc(C#N)cc12)c1ccc(NS(C)(=O)=O)cc1 | Indoleamine 2,3-dioxygenase 1 (IDO1, Homo sapiens, UniProt P14902) | enzyme activity, inhibitor | – | – | – | IC50 | 11.5 µM |
| CN1CC[C@H](c2c(O)cc(O)c3c(=O)cc(-c4ccccc4F)oc23)[C@H](O)C1 | Serine/threonine-protein kinase Sgk1 (SGK1, Homo sapiens, UniProt O00141, S422D) | – | – | ATP at Km | – | IC50 | > 10 µM |
| COc1ccc2[nH]cc(/C=C/c3ccc(OS(C)(=O)=O)cc3)c2c1 | Amyloid-beta precursor protein, amyloid-beta peptide (APP, Homo sapiens, UniProt P05067) | Aβ42 oligomerisation, ELISA | – | – | – | IC50 | > 20 µM |
| Nc1ncc(-c2ccc3ncnc(N4CCc5cc(F)c(Cl)cc54)c3c2)cn1 | – | – | CD1 mouse, brain | intravenous, 5 mg/kg | – | Tmax | 4.98 min |
| O=C(Nc1ccc(-c2nc3ccc(NC(=O)N4CCOCC4)cc3s2)cc1)N1CCOCC1 | Tyrosine-protein kinase SYK, with FCER1G (SYK, Homo sapiens, UniProt P43405) | protein binding, inhibitor, TR-FRET | – | – | – | IC50 | > 100 µM |
| Cc1ncsc1-c1ccc([C@H](C)NC(=O)[C@@H]2C[C@@H](O)CN2C(=O)[C@@H](NC(=O)CCCCCCC(=O)N2CCN(C[C@]3(C)CCC(c4ccc(Cl)cc4)=C(CN4CCN(c5ccc(C(=O)NS(=O)(=O)c6ccc(N[C@H](CCN7CCOCC7)CSc7ccccc7)c(S(=O)(=O)C(F)(F)F)c6)cc5)CC4)C3)CC2)C(C)(C)C)cc1 | – | item: Cdkn2a and Cdkn1a | STAM mice NASH-HCC model, liver | intraperitoneal, 5 mg/kg twice weekly, from day 45 | – | mRNA level | decreased |
| COc1cc([C@@H]2c3cc4c(cc3[C@H](C=C(C)C)[C@H]3COC(=O)[C@H]23)OCO4)cc(OC)c1OC | Leishmania | – | mouse splenocytes | – | reference: CC50 over amastigote EC50 | selectivity index | 0.9 |
| COC(=O)[C@@]1(C)C=C(C(=O)Nc2cccc(C(=O)NC34CC(Nc5nccc(-c6cccnc6)n5)(C3)C4)c2)C(=O)CC1 | Mitogen-activated protein kinase 10 (MAPK10, Homo sapiens, UniProt P53779) | enzyme activity, inhibitor | – | 44.44 µM | – | remaining activity | 0.0161 fraction of control |
| Cc1cccc(C2NC(=O)c3c(Cl)cccc3N2)c1 (racemic) | SWI/SNF-related matrix-associated actin-dependent regulator of chromatin subfamily A member 4 (SMARCA4, Homo sapiens, UniProt P51532) | ITC | – | bromodomain, wild type | – | Kd | > 70 µM |
| Cn1ccnc1SCC(=O)Nc1ccc2nc(SCC(=O)NC3CC3)sc2c1 | Estrogen receptor, ligand-binding domain; with SRC-3 (ESR1, Homo sapiens, UniProt P03372) | coactivator binding, TR-FRET | – | added: SRC-3 fragment | – | IC50 | > 50 µM |
| COc1cc2nc3ccccc3c(SCCCN)c2cc1OC | Serine/threonine-protein kinase haspin (HASPIN, Homo sapiens, UniProt Q8TF76) | inhibitor, TR-FRET | – | added: histone H3 peptide | – | IC50 | ~7 µM |
| CCOc1ccc2cc(-c3nn(CC4CCNCC4)c4ncnc(N)c34)ccc2n1 | Tyrosine-protein kinase ABL1 (ABL1, Homo sapiens, UniProt P00519) | kinase activity, inhibitor, radiometric | – | highest tested 10 µM | – | IC50 | > 10 µM |
| Nc1ccc2cc(N)ncc2c1 | CUGBP Elav-like family member 1, RRM1/2 (CELF1, Homo sapiens, UniProt Q92879) | RRM1/2-RNA binding, inhibitor, fluorescence polarization | – | added: Cy3 GU RNA probe | – | IC50 | 1.52 µM |
| O=C(/C=C/c1ccc(O)c(OC(F)(F)F)c1)C(CCCOC1CCCCO1)C(=O)/C=C/c1ccc(O)c(OC(F)(F)F)c1 (stereo not shown) | Amyloid-beta precursor protein, Aβ aggregates (APP, Homo sapiens, UniProt P05067) | binding, thioflavin T competition | – | – | – | IC50 | 0.31 µM |

Some of these lines once more:
| Compound | target or system | assay | test system | conditions | how to read | endpoint | result |
| --- | --- | --- | --- | --- | --- | --- | --- |
| O=[N+]([O-])c1cc(CN2CCN(c3ccc(Cl)cc3)CC2)ccc1Cl | SEC14 (Saccharomyces cerevisiae, UniProt P24280) | phosphatidylinositol transfer, inhibitor | – | Sec14 287 nM, added: [3H]-phosphatidylinositol | – | IC50 | 31 ± 10.3 µM |
| COc1cc(Nc2ccnc3cc(Br)ccc23)cc(OC)c1OC | Serine/threonine-protein kinase N3 (PKN3, Homo sapiens, UniProt Q6P5Z2) | target engagement, NanoBRET | HEK293 | – | – | IC50 | 2.7 µM |
